Published values pooled from the literature.
Each line is one published result; not all experiments were run side by side.

| test | system | conditions | quantity | value | SMILES |
| --- | --- | --- | --- | --- | --- |
|  | deionized water |  | critical aggregation concentration | 0.107 mg/mL | COCCOCCOCCOCCOCCOCCOCCOCCOCCOCCOCCOCCNC(=O)CCC1(Cc2ccccc2)c2ccccc2-c2ccc(-c3sc(-c4c5c(c(-c6sc(-c7ccc8c(c7)C(CCC(=O)NCCOCCOCCOCCOCCOCCOCCOCCOCCOCCOCCOCCOC)(Cc7ccccc7)c7ccccc7-8)c7c6OCCO7)c6nsnc46)N=S=N5)c4c3OCCO4)cc21 (stereo not shown) |
| substrate, rheology | hydrogel | 0.5 wt%, with: alkaline phosphatase 1 U/mL | critical strain | 1.5% | O=C(Cc1ccc2ccccc2c1)N[C@H](Cc1ccc(O)cc1)C(=O)N[C@H](Cc1ccccc1)C(=O)N[C@H](Cc1ccccc1)C(=O)N[C@H](Cc1ccc(OP(=O)(O)O)cc1)C(=O)O |
| surface tension tensiometry |  |  | critical aggregation concentration | 1.31 mg/mL | COC(=O)[C@H](Cc1ccccc1)NC(=O)[C@H](Cc1ccccc1)N=Cc1ccc(C=N[C@@H](Cc2ccccc2)C(=O)N[C@@H](Cc2ccccc2)C(=O)OC)cc1 |
| light scattering | DNase I reaction buffer |  | critical aggregation concentration | > 23 µM | CCC(c1nnnn1Cc1cccs1)N1CCN(c2nc3cc(N)cc(F)c3s2)CC1 (stereo not shown) |
| RWG biosensor | HBSS HEPES buffer | pH 7.2 | critical aggregation concentration | 2.8 µM | Oc1cc(O)c2c(c1)OC(c1ccc(O)c(O)c1)C(OC1(c3ccc(O)c(O)c3)Oc3cc(O)cc(O)c3C(O)C1O)C2 (stereo not shown) |
| substrate, rheology | hydrogel | 0.5 wt%, with: alkaline phosphatase 1 U/mL | critical strain | 1% | O=C(Cc1ccc2ccccc2c1)N[C@H](Cc1ccccc1)C(=O)N[C@H](Cc1ccccc1)C(=O)N[C@H](Cc1ccc(OP(=O)(O)O)cc1)C(=O)N[C@H](Cc1ccc(OP(=O)(O)O)cc1)C(=O)O |
| light transmittance | PBS | pH 7.4 | critical micelle concentration | 976 µM | CC[C@H](C)[C@H](NC(=O)[C@H](CCN)NC(=O)CCCCCCCCCCCNC(=O)CCCCCO)C(=O)N[C@@H](CCN)C(=O)N[C@H](Cc1ccccc1)C(=O)N[C@@H](CC(C)C)C(=O)N[C@@H](CCN)C(=O)N[C@@H](C(=O)N[C@@H](CC(C)C)C(=O)N[C@@H](CO)C(N)=O)C(C)C |
| substrate, rheology | hydrogel | 0.5 wt%, with: alkaline phosphatase 1 U/mL | critical strain | 1.5% | O=C(Cc1ccc2ccccc2c1)N[C@H](Cc1ccccc1)C(=O)N[C@H](Cc1ccccc1)C(=O)N[C@H](Cc1ccc(O)cc1)C(=O)N[C@H](Cc1ccc(OP(=O)(O)O)cc1)C(=O)O |
| oscillatory rheology | hydrogel in water | 2.0 wt%, pH 5.0 or 7.4, with: alkaline phosphatase at pH 7.4 | critical strain | 1.2% | Cc1cn(CC(=O)N[C@@H](Cc2ccccc2)C(=O)N[C@@H](Cc2ccccc2)C(=O)O)c(=O)[nH]c1=O |
| surface tension |  |  | critical aggregation concentration | 1.07 mg/mL | COC(=O)[C@H](CSSC[C@H](NC(=O)[C@H](Cc1ccccc1)NC(=O)[C@H](Cc1ccccc1)NC(=O)OC(C)(C)C)C(=O)OC)NC(=O)[C@H](Cc1ccccc1)NC(=O)[C@H](Cc1ccccc1)NC(=O)OC(C)(C)C |
| light scattering | DNase I buffer | 5% DMSO | critical aggregation concentration | 177 µM | CCC(c1nnnn1Cc1cccs1)N1CCC(c2nc3cc(N)ccc3s2)CC1 (stereo not shown) |
|  | PBS | after jet nebulization | critical gelation concentration | 1 mM | CCCCCCCCCCCC(=O)N[C@@H](CC(C)C)C(=O)N[C@@H](CCCNC(=N)N)C(=O)N[C@@H](CCC(=O)O)C(=O)N[C@@H](CC(C)C)C(=O)N[C@@H](Cc1c[nH]cn1)C(=O)N[C@@H](CC(C)C)C(=O)N[C@@H](CC(N)=O)C(=O)N[C@@H](CC(N)=O)C(=O)N[C@@H](CC(N)=O)C(N)=O |
| Nile Red fluorescence | 150 mM NaCl | pH 4.0, room temperature | critical aggregation concentration | 467 µM | NCCNC(=O)[C@H](Cc1ccccc1)NC(=O)[C@H](Cc1ccccc1)NC(=O)CNC(=O)c1cc(C(=O)NCC(=O)N[C@@H](Cc2ccccc2)C(=O)N[C@@H](Cc2ccccc2)C(=O)NCCN)cc(C(=O)NCC(=O)N[C@@H](Cc2ccccc2)C(=O)N[C@@H](Cc2ccccc2)C(=O)NCCN)c1 |
| oscillatory rheology | hydrogel in water | 2.0 wt%, pH 5.0 or 7.4, with: alkaline phosphatase at pH 7.4 | critical strain | 0.6% | Nc1ccn(CC(=O)N[C@@H](Cc2ccccc2)C(=O)N[C@@H](Cc2ccccc2)C(=O)O)c(=O)n1 |
| pyrene fluorescence | water |  | critical micelle concentration | ~63.1 µg/mL | C[N+](C)(C)CCOP(=O)([O-])OCC(COC(=O)CCCCCOC(=O)CCCCC1CCSS1)OC(=O)CCCCCOC(=O)CCCCC1CCSS1 (stereo not shown) |
| light scattering | DNase I buffer | 5% DMSO | critical aggregation concentration | 19.6 µM | CCC(c1nnnn1Cc1cccs1)N1CCC(c2nc3cccc(F)c3s2)CC1 (stereo not shown) |

Excerpt of the above:
| test | system | conditions | quantity | value | SMILES |
| --- | --- | --- | --- | --- | --- |
| oscillatory rheology | hydrogel in water | 2.0 wt%, pH 5.0 or 7.4, with: alkaline phosphatase at pH 7.4 | critical strain | 0.6% | Nc1ccn(CC(=O)N[C@@H](Cc2ccccc2)C(=O)N[C@@H](Cc2ccccc2)C(=O)O)c(=O)n1 |
| pyrene fluorescence | water |  | critical micelle concentration | ~63.1 µg/mL | C[N+](C)(C)CCOP(=O)([O-])OCC(COC(=O)CCCCCOC(=O)CCCCC1CCSS1)OC(=O)CCCCCOC(=O)CCCCC1CCSS1 (stereo not shown) |
